Experimental data of several laboratories.
A part holds a random share of what one study measured. Positions count from the first letter of the parent shown.

Study 1
Target: ABI1, truncated, D143A, DHFR fusion (Arabidopsis thaliana)
Technique: DHFR PCA, deep sequencing
Matrix: yeast
Setting: methotrexate growth selection, single substitutions
Added: (+)-ABA 2500 µM
Relative to: wild-type fitted maximum
Direction: higher = stronger binding
Starting sequence: PYL1, truncated, DHFR fusion (Arabidopsis thaliana); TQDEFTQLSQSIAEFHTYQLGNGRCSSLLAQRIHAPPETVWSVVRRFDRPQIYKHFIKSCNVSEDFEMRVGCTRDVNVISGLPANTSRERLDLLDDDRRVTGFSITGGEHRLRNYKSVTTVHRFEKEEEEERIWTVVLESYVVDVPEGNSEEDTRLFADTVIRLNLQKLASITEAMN
Substitution | relative binding score [%]
K54I | -1.76
T119F | 78.3
A158Y | 19.6
P36T | 94.5
E129G | 105
E4P | 99.2
V44L | 92.4
Q7I | 78.1
R49I | 85.6
N114Y | 72.6
P83G | 86.7
Y115Q | -6.55

Study 2
Target: CRIPT, C-terminal peptide
Technique: DHFR complementation, deep sequencing
Matrix: yeast
Setting: single substitutions, model-inferred values
Relative to: wild type
Direction: higher = weaker binding
Starting sequence: ERBIN, PDZ domain 1 (human); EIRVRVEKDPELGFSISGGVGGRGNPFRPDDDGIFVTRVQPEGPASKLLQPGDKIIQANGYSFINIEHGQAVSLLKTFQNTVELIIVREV; partner TKNYKQTSV
Substitution | binding free energy change [kcal/mol]
Q40P | 0.678
L84V | 0.144
V4Q | 0.946
I66H | 0.336
N65D | -0.0456
D32Y | 0.616
V72D | 1.56
R5G | 0.102
G43S | 0.651
S46Q | 0.0043
S73F | -0.0349

Study 3
Target: CCNE1, cyclin fold, Cln2 fusion (human)
Technique: yeast growth competition, sequencing
Matrix: yeast
Setting: strong parent motif
Relative to: not given
Direction: higher = stronger binding
Starting sequence: BRCA2 docking peptide (human); PSIKRNLLNEFDR; partner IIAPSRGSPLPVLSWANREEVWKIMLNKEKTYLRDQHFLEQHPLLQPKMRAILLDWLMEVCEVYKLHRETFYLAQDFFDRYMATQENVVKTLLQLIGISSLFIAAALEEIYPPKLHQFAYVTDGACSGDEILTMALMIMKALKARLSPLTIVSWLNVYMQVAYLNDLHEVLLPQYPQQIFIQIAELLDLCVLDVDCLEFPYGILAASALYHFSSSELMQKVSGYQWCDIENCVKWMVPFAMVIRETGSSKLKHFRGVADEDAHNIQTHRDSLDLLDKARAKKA
Substitution | normalised enrichment score
D12I | -0.344
N9E | 1.77
L7N | 0.0464
I3E | 0.756
P1K | 2.48
K4R | 0.999
R5L | -0.392
R5T | 0.449
D12V | 1.57
R13A | 2.93
P1D | 1.76

Mixed results
Molecule | target | assay | test system | conditions | scale | endpoint | value
PhoQ, residues 284 288 289 292 302 303 SLKLQV | PhoP, residues 12 14 15 18 19 NQAHL (Escherichia coli, UniProt P23836) | Sort-seq, refers to: YFP reporter | E. coli | PhoQ-PhoP variant library, added: 10 µM Mg2+ | relative to: high Mg2+ state, higher = stronger signaling | fold induction | 1.19
